Assay results collected from several papers.
Protocols differ between the studies behind these lines. Several values in a cell are separate wells, animals, samples, runs or records. Numbers after ± are the reported error.
ache: Acetylcholinesterase (ache, Electrophorus electricus, UniProt O42275)
Chain of UniProt O42275 (whole entry, looked up): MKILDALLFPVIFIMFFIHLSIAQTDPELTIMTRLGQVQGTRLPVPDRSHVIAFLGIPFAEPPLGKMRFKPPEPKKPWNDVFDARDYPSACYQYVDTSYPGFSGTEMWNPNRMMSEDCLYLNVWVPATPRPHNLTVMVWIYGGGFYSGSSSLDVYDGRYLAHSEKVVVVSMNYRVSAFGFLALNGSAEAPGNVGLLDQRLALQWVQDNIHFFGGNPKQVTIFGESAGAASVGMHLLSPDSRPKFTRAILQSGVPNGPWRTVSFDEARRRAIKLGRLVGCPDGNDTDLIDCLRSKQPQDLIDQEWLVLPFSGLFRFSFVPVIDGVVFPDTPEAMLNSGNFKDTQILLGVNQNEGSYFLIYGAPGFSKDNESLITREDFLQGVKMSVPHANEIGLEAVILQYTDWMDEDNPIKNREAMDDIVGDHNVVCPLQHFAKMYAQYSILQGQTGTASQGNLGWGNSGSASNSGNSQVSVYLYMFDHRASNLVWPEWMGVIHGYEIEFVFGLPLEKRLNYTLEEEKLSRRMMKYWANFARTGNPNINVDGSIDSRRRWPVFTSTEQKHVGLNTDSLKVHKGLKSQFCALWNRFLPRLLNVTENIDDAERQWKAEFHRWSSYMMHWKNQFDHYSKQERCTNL
dcp2 with Dcp1: mRNA decapping complex subunit 2, with Dcp1 (dcp2, Schizosaccharomyces pombe, UniProt O13828)
Chain of UniProt O13828 (whole entry, looked up): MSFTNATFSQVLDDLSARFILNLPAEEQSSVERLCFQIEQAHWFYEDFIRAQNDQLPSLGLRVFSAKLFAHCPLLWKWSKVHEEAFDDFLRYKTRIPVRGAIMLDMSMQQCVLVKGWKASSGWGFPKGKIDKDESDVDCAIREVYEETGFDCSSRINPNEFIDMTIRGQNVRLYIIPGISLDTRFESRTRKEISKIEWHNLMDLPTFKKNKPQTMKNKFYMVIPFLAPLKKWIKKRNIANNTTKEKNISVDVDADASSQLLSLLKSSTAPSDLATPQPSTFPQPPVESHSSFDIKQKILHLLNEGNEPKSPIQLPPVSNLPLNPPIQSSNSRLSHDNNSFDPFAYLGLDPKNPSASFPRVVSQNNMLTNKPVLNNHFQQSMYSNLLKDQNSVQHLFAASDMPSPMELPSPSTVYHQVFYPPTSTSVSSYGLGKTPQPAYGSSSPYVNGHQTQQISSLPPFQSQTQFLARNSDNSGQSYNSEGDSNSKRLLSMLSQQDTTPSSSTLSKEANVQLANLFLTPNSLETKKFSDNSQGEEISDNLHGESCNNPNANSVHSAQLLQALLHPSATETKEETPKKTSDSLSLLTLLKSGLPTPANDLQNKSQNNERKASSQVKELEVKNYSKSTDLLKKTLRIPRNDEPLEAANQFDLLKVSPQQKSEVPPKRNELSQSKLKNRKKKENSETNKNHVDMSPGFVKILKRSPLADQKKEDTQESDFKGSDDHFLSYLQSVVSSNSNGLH
Chain of UniProt P42336 (whole entry, unmodified, looked up): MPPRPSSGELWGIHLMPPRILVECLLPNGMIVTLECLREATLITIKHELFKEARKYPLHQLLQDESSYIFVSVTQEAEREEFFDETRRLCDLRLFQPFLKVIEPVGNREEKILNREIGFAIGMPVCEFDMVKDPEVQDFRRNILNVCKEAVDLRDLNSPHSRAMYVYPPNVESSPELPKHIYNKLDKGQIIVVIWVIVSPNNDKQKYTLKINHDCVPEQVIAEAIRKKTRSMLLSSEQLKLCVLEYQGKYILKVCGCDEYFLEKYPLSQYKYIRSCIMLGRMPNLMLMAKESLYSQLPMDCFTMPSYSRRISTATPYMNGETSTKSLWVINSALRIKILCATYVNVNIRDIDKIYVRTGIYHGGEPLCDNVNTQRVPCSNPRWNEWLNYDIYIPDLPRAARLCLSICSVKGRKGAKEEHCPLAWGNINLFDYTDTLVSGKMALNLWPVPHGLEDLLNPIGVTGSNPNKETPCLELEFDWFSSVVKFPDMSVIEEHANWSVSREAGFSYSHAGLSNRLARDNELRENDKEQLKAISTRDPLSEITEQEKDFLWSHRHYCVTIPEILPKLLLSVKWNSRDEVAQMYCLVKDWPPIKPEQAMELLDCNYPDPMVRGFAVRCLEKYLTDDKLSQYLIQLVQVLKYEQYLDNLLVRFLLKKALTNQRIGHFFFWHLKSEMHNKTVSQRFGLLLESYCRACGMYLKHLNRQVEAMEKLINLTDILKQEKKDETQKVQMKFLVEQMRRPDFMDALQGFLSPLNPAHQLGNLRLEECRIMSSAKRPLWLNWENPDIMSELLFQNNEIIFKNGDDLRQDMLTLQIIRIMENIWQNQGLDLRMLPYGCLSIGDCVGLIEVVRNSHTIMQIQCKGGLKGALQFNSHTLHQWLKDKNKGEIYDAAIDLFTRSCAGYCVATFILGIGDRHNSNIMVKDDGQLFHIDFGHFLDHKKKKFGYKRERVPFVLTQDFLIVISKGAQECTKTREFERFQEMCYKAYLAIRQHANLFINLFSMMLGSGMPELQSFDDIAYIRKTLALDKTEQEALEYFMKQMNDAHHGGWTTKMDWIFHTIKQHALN
Chain of UniProt Q96BR1 (whole entry, looked up): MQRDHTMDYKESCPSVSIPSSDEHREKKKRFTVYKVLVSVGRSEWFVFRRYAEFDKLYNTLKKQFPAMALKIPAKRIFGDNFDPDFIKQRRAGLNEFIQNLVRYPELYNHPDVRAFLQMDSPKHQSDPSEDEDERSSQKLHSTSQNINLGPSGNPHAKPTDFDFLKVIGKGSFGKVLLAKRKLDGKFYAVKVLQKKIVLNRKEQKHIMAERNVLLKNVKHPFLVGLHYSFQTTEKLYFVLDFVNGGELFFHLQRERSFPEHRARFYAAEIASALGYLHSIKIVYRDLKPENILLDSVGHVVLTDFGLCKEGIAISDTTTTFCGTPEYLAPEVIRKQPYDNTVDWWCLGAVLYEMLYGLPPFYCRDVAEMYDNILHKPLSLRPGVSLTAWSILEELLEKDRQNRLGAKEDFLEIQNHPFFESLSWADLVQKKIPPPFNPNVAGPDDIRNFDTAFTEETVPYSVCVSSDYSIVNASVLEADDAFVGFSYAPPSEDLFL
Chain of UniProt P00811 (whole entry, looked up): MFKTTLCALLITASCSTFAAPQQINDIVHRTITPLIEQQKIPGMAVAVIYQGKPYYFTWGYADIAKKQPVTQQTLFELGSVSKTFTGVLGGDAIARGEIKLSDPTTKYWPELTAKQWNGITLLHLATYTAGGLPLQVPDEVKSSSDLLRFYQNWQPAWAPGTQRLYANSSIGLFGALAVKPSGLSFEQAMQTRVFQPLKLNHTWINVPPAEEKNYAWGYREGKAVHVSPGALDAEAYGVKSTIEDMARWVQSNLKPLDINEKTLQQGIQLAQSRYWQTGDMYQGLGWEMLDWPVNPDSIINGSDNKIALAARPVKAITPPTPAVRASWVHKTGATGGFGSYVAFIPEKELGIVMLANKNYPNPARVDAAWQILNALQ
Chain of UniProt P25929 (whole entry, looked up): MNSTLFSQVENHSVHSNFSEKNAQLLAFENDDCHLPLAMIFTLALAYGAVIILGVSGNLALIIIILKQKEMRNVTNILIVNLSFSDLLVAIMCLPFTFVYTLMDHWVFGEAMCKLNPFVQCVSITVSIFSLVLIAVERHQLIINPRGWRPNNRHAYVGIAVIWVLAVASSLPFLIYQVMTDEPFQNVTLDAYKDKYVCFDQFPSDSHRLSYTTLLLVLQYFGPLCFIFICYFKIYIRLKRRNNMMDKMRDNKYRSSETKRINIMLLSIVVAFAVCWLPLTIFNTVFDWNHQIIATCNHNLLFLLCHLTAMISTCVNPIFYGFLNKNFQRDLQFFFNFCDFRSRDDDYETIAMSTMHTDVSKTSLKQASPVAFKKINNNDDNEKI
Chain of UniProt Q9UQB9 (whole entry, looked up): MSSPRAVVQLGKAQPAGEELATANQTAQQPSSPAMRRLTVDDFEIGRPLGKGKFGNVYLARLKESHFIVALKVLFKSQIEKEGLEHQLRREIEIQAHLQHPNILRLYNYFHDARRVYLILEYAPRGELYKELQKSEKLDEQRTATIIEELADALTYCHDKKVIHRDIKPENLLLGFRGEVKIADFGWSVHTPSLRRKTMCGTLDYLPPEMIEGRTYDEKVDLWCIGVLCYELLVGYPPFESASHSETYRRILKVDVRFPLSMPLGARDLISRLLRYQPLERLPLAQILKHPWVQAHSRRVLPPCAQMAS
Chain of UniProt P78356 (whole entry, looked up): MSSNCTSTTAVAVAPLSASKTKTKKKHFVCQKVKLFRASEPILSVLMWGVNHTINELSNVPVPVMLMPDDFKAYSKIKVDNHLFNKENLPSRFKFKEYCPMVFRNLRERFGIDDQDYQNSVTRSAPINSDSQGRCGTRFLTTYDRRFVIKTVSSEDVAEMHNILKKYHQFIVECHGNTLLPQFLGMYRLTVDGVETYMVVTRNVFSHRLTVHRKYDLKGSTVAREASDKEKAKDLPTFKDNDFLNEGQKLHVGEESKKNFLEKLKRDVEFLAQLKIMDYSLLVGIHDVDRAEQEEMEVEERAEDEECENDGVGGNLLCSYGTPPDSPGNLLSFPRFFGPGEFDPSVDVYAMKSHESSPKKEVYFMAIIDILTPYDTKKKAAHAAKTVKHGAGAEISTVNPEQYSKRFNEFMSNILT
Chain of UniProt O14757 (whole entry, looked up): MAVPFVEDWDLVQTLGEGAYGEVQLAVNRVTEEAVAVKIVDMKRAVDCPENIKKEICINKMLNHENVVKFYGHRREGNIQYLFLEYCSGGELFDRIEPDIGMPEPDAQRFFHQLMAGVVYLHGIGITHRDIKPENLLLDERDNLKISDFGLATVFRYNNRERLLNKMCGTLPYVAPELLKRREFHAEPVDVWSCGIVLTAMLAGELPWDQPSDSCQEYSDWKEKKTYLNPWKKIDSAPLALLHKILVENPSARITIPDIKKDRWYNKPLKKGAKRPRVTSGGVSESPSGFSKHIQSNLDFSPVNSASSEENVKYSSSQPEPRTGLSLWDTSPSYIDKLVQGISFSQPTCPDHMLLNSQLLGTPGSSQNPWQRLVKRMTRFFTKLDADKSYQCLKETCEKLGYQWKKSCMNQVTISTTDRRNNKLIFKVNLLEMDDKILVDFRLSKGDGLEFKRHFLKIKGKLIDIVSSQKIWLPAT

Structure (SMILES)	tested on	assay	test system	conditions	scale	endpoint	value
Cc1ccc2c(n1)c(-c1cccc(S(C)(=O)=O)c1)c(C)n2C/C(F)=C/CN	MAOB (Homo sapiens, UniProt P27338)	ligand displacement		10 µM		inhibition	23%
NCC1CC1	ache	enzyme activity, inhibitor, Ellman		20 µM		inhibition	34.5%
C[C@H](NCc1ccc(-c2ccc(C(F)(F)F)cc2)cc1)C(N)=O	CHEK1 (Homo sapiens, UniProt O14757)	cell-free assay, competition with immobilised ligand		1 µM		inhibition	0%
O=C(O)c1ccccc1/C=N/Nc1nc(-c2ccccc2Cl)cs1	Aurora kinase C (AURKC, Homo sapiens, UniProt Q9UQB9)	enzyme activity, inhibitor		1 µM		inhibition	-3.94%
CCN(N=Cc1cnc2ccc(Br)cn12)S(=O)(=O)c1cc([N+](=O)[O-])ccc1C	PIK3CA (Homo sapiens, UniProt P42336, K776A)	enzyme activity		60 nM		inhibition	27%
O=C(CN1CN(c2ccccc2)C2(CCN(C(=O)c3cnc4[nH]ncc4c3)CC2)C1=O)NCC(F)(F)F	CIT (Homo sapiens, UniProt O14578)	inhibitor		concentration not given		inhibition	< 50%
O=C(Nc1cccnc1)c1cccc(C2(CNCc3ccc(F)c(F)c3)CC2)c1	ache	enzyme activity, inhibitor, Ellman		5 µM		inhibition	59.9%
COc1ccc(F)cc1S(=O)(=O)Nc1cnc2c(c1)C(=O)NCCO2	CCR1 (Homo sapiens, UniProt P32246)	ligand displacement, radioligand		10 µM		inhibition	6%
Cc1cccc2c1cc(B(O)O)n2C(=O)OC(C)(C)C	Beta-lactamase (ampC, Escherichia coli K-12, UniProt P00811)	enzyme activity, inhibitor, CENTA hydrolysis absorbance		10 µM		inhibition	< 10%
O=S(=O)(F)CCc1cn(-c2ccc(Cl)c(Cl)c2)nn1	ache	Ellman		20 µM		inhibition	40.5 ± 3.3%
COc1ccccc1-c1n[nH]c2nc(NC3CCN(C(=O)Cc4ccc(F)cc4F)CC3)ncc12		bead binding, competition bead pull-down, measured: LINJ.24.1910	Leishmania donovani axenic amastigote extract	10 µM	reference: vehicle	relative abundance	0.98
CC[C@H](C)[C@H](NC(=O)[C@H](CO)NC(=O)[C@H](Cc1ccc(O)cc1)NC(=O)[C@H](Cc1ccc(O)cc1)NC(=O)[C@H](CC(N)=O)NC(=O)CNC(=O)[C@H](CO)NC(=O)[C@H](Cc1ccc(O)cc1)NC(=O)[C@H](CO)NC(=O)[C@H](CO)NC(=O)[C@H](CC(N)=O)NC(=O)COCCOCCNC(=O)CN1CCN(CC(=O)O)CCN(CC(=O)O)CCN(CC(=O)O)CC1)C(=O)N[C@@H](CC(C)C)C(N)=O [copper-64 labelled]		dynamic PET	tamoxifen-induced PDAC mouse model, tumor	0 min, 49 days after tamoxifen		mean uptake	0 %IA/cc
O=C(NC1CCN(c2ncnc3[nH]cnc23)CC1)c1cccc(NS(=O)(=O)c2ccc(C(F)(F)F)cc2)c1	Genome polyprotein, NS5 methyltransferase domain (Zika virus, UniProt Q32ZE1)	NS5 enzyme activity, inhibitor		12.5 µM		inhibition	-1.8%
CN[C@@H]1[C@H](O)[C@H](NC)[C@H]2O[C@]3(O)[C@H](O[C@@H]2[C@H]1O)O[C@H](C)C[C@H]3NC(=O)Cc1cc(Cl)ccn1	NPY1R (Homo sapiens, UniProt P25929)	ligand displacement, radioligand		10 µM		inhibition	-7%
COc1ccccc1-c1n[nH]c2nc(N[C@H]3CC[C@H](NS(=O)(=O)CC(C)C)CC3)ncc12		bead binding, competition bead pull-down, measured: LINJ.36.2070	Leishmania donovani extract	10 µM	reference: vehicle	relative abundance	0.81
CC(C)N	ache	enzyme activity, inhibitor, Ellman		20 µM		inhibition	49.8%
CN(C)[C@H]1C[C@@]23CC[C@@]4(O2)C(=CC[C@]2(C)[C@@H](c5ccc6ccncc6c5)CC[C@H]24)C=C3[C@@H](O)[C@@H]1O	PIP4K2B (Homo sapiens, UniProt P78356)	ATP probe labelling, inhibitor, KiNativ profiling		0.1 µM		inhibition	-9.4%
BP(=O)(OC[C@H]1O[C@@H](n2c[n+](C)c3c(O)nc(N)nc32)[C@H](O)[C@@H]1O)OP(=O)([O-])CP(=O)([O-])OP(B)(=O)OC[C@H]1O[C@@H](n2c[n+](C)c3c(O)nc(N)nc32)[C@H](O)[C@@H]1O (some centres unmarked)	dcp2 with Dcp1			200 µM, 0.25 h		inhibition	29%
Cc1nc2cccc(OCC(C)(C)C(=O)NC(C)C)c2c(N)c1C(=O)[O-].[Na+]	Salmonella typhimurium	Ames plate incorporation	TA1535	0.32 mg/plate, together with: with rat liver S9		revertant colonies	13 ± 4 colonies/plate

Structure (SMILES)	tested on	assay	test system	conditions	scale	endpoint	value
O=C1NC(=O)c2c1c1cc(F)c[n+]3c1c1c2c2cc(O)ccc2[n]1[Ru-4]312([N]=C=S)[S+]3CC[S+]1CC[S+]2CC3 (centres unmarked)	PRKCQ (Homo sapiens, UniProt Q04759)	enzyme activity		100 nM, human enzyme, together with: 10 µM ATP	reference: untreated	remaining activity	16%
Cc1ccc(N2CCN(C)[C@H](C)C2)cc1C(=O)N[C@H](C)c1cc(-c2cnn(C)c2)nc2ccccc12	Vero E6			500 µM		viability	0.785% and 0%
CC(C)(C)C(=O)OCOP(=O)(OCOC(=O)C(C)(C)C)C1CCCN(O)C1=O (centres unmarked)	MDA-MB-231					TGI	20 µM
CN(/N=C/c1ccccc1C(=O)O)c1nc(-c2ccccc2Cl)cs1	PIK3CA (Homo sapiens, UniProt P42336)	enzyme activity, inhibitor		1 µM		inhibition	11.9%
O=C1N=CN(c2ccccc2)C12CCN(Cc1ccccc1)CC2	PDE6D (Homo sapiens, UniProt O43924)	enzyme activity, inhibitor		5 µM		inhibition	34.2%
CC(=O)NC[C@@H]1[C@@H](O)C[C@H]2[C@H](O)C[C@@H](CO)N12	human placental β-N-acetylglucosaminidase			0.0428 µM, run 1, together with: p-nitrophenyl GlcNAc		inhibition	38.8%
C=CC(=O)Nc1cc(-c2nn(C3CCC(N4CCN(C(C)=O)CC4)CC3)c3ncnc(N)c23)ccc1Oc1ccccc1 (centres unmarked)	ERBB2 (Homo sapiens, UniProt P04626)	inhibitor, KiNativ profiling	biochemical	2 µM		inhibition	69.8%
N[C@H](C(=O)N1CCCC1)C1CCN(c2nccc3c(-c4ncc(Cl)cc4Cl)cccc23)CC1	SRC (Homo sapiens, UniProt P12931)	enzyme activity, inhibitor		10 µM		inhibition	4%
Cc1cc(Nc2nc(C[C@@]3(C(=O)O)CCN(Cc4cccc(Cl)c4F)[C@H](C)C3)cc(C)c2F)[nH]n1	NR3C1 (Homo sapiens, UniProt P04150)	inhibitor		10 µM		inhibition	71.3%
Cc1cc(C(=O)Nc2nc3cccc(C)c3n2[C@H]2CCCCN(C(=O)/C=C/CN(C)C)C2)ccn1	Trypanosoma brucei	propidium iodide flow cytometry	bloodstream form	concentration not given, 6 h		cells in G2 phase	35.4%
CS(C)(=O)=Nc1ccc(-c2ccc(-c3nc4cc(O[C@@H]5CO[C@H]6[C@@H]5OC[C@H]6O)[nH]c4cc3F)cc2)cc1	PASK (Homo sapiens, UniProt Q96RG2)	enzyme activity, inhibitor		10 µM		inhibition	-3%
O=S(=O)(F)CCc1cn(-c2ccc(OC(F)(F)F)cc2)nn1	ache			20 µM		inhibition	14.3 ± 2.9%
O=C1NC2(CC2)COc2ncc(F)cc2[C@H]2COCCN2c2ccn3ncc1c3n2			Sprague-Dawley rat, female, serum	oral, 2.5 mg/kg/day, end of treatment, 4-week subacute toxicity		serum LDH activity	723 ± 278 U/L
CC(C)[C@H]1NC(=O)C[C@H]2/C=C/CCSSC[C@@H](NC1=O)C(=O)N[C@H](Cc1cccc3ccccc13)C(=O)NCC(=O)O2	SGK3 (Homo sapiens, UniProt Q96BR1)	enzyme activity, inhibitor		10 µM		inhibition	6.3%
COc1ccccc1N1CCN(CCCCN2CCCc3ccccc3C2=O)CC1	DRD5 (Homo sapiens, UniProt P21918)	radioligand binding		concentration not given, together with: [3H]SCH23390		inhibition	42.6%
Cc1ccc(OCCN(C)C)cc1C(=O)N[C@H](C)c1cc(-c2cccs2)nc2ccccc12	Vero E6			3.906 µM		viability	95.4% and 93.5%
CN[C@@H]1[C@H](O)[C@H](NC)[C@H]2O[C@]3(O)[C@H](O[C@@H]2[C@H]1O)O[C@H](C)C[C@H]3NC(=O)Cc1ccc(Cl)cn1	ADORA3 (Homo sapiens, UniProt P0DMS8)	ligand displacement, radioligand		10 µM		inhibition	-1%
C[n+]1cn([C@@H]2O[C@H](COP(=O)([O-])NP(=O)(O)O)[C@@H](O)[C@H]2O)c2nc(N)nc(O)c21	dcp2 with Dcp1			200 µM, 0.25 h		inhibition	16.6%
CC(=O)NCCCC[C@@H]1NC(=O)[C@H](Cc2c[nH]c3c(C)cccc23)NC(=O)[C@H]([C@@H](C)O)NC(=O)[C@H](CC(N)=O)NC(=O)[C@@H](NC(C)=O)C(C)(C)SSC(C)(C)[C@@H](C(=O)N[C@@H](Cc2ccc(OCCN)cc2)C(=O)N[C@@H](Cc2ccc3ccccc3c2)C(=O)NC2(C(=O)N[C@@H](CCC(=O)O)C(=O)N[C@@H](CC(N)=O)C(=O)N[C@@H](Cc3cccnc3)C(=O)N(C)CC(N)=O)CCOCC2)NC1=O	Albumin (ALB, Homo sapiens, UniProt P02768)	equilibrium dialysis	purified human albumin	0.01 µM		unbound fraction	70.4 ± 4.1 % unbound

Repeated from above:
Structure (SMILES)	tested on	assay	test system	conditions	scale	endpoint	value
O=C1N=CN(c2ccccc2)C12CCN(Cc1ccccc1)CC2	PDE6D (Homo sapiens, UniProt O43924)	enzyme activity, inhibitor		5 µM		inhibition	34.2%
CC(=O)NC[C@@H]1[C@@H](O)C[C@H]2[C@H](O)C[C@@H](CO)N12	human placental β-N-acetylglucosaminidase			0.0428 µM, run 1, together with: p-nitrophenyl GlcNAc		inhibition	38.8%
C=CC(=O)Nc1cc(-c2nn(C3CCC(N4CCN(C(C)=O)CC4)CC3)c3ncnc(N)c23)ccc1Oc1ccccc1 (centres unmarked)	ERBB2 (Homo sapiens, UniProt P04626)	inhibitor, KiNativ profiling	biochemical	2 µM		inhibition	69.8%
N[C@H](C(=O)N1CCCC1)C1CCN(c2nccc3c(-c4ncc(Cl)cc4Cl)cccc23)CC1	SRC (Homo sapiens, UniProt P12931)	enzyme activity, inhibitor		10 µM		inhibition	4%
Cc1cc(Nc2nc(C[C@@]3(C(=O)O)CCN(Cc4cccc(Cl)c4F)[C@H](C)C3)cc(C)c2F)[nH]n1	NR3C1 (Homo sapiens, UniProt P04150)	inhibitor		10 µM		inhibition	71.3%
